Published values gathered from unrelated publications.
± marks the error that the study gave.
GBA2: Beta-glucosidase (GBA2, Homo sapiens, UniProt Q9HCG7)
Sequence of UniProt Q9HCG7 (whole entry, looked up): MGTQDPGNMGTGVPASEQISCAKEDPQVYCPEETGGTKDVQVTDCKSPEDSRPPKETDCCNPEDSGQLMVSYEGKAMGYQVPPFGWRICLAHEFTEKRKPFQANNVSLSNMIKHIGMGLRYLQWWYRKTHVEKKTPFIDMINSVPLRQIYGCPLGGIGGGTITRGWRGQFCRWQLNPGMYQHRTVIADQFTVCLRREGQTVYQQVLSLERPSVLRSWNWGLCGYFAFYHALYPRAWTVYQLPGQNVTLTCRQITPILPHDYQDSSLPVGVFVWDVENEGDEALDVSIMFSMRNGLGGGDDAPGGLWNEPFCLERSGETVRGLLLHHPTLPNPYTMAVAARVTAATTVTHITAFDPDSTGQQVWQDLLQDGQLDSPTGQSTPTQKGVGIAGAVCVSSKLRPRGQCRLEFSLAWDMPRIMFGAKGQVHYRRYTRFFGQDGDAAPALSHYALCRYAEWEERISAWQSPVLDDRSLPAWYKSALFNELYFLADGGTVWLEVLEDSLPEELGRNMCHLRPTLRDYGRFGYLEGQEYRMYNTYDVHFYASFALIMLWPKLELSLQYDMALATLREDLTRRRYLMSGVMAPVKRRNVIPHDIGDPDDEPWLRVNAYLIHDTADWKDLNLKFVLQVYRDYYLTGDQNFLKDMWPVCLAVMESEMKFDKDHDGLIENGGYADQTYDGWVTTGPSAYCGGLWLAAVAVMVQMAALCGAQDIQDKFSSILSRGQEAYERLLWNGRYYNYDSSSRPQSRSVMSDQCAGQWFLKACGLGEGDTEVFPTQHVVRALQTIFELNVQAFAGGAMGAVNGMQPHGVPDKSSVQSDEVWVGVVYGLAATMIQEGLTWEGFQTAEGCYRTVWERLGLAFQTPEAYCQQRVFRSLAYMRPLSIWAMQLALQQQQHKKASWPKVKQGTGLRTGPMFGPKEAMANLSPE
Chymotrypsinogen A: Chymotrypsinogen A (Bos taurus, UniProt P00766)
Sequence of UniProt Q8IXJ6 (whole entry, looked up): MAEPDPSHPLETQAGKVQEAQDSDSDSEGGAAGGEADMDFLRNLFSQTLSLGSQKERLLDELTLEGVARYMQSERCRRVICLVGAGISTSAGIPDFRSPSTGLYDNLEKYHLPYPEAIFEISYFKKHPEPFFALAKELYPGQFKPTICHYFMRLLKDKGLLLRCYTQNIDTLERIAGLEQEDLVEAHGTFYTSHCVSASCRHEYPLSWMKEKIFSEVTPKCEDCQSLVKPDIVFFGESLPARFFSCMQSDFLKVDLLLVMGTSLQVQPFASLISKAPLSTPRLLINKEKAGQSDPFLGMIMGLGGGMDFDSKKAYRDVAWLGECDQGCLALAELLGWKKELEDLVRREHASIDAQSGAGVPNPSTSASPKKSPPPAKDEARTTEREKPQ
Sequence of UniProt P07949 (whole entry, looked up): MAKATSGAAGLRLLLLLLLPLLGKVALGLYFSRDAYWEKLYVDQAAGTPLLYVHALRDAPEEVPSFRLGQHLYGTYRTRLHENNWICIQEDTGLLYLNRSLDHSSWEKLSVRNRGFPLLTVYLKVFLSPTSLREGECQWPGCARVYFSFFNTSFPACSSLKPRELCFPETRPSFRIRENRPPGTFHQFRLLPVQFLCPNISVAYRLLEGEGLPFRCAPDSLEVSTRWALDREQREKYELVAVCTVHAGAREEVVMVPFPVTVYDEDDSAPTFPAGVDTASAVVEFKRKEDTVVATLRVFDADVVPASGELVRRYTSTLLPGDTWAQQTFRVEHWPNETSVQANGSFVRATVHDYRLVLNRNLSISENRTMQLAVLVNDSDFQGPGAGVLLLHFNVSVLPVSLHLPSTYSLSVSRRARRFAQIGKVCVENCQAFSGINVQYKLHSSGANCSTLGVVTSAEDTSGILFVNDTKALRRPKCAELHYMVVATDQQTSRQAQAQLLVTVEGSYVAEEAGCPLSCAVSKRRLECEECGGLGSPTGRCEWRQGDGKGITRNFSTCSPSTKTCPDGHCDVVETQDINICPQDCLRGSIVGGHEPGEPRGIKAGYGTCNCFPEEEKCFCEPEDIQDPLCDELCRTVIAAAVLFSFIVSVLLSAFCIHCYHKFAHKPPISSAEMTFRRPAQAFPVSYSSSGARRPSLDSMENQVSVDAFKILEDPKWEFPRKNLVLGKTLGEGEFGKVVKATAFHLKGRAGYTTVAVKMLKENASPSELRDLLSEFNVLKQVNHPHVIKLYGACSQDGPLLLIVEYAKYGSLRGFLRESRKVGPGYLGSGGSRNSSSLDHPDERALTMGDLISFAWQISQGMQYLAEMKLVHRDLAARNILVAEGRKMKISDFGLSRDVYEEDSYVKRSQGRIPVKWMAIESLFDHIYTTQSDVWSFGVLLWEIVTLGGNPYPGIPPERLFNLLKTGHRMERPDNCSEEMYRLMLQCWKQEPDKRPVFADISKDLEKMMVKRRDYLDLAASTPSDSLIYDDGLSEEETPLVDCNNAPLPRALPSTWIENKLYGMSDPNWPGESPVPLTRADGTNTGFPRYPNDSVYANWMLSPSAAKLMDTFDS
Sequence of UniProt Q8NER1 (whole entry, unmodified, looked up): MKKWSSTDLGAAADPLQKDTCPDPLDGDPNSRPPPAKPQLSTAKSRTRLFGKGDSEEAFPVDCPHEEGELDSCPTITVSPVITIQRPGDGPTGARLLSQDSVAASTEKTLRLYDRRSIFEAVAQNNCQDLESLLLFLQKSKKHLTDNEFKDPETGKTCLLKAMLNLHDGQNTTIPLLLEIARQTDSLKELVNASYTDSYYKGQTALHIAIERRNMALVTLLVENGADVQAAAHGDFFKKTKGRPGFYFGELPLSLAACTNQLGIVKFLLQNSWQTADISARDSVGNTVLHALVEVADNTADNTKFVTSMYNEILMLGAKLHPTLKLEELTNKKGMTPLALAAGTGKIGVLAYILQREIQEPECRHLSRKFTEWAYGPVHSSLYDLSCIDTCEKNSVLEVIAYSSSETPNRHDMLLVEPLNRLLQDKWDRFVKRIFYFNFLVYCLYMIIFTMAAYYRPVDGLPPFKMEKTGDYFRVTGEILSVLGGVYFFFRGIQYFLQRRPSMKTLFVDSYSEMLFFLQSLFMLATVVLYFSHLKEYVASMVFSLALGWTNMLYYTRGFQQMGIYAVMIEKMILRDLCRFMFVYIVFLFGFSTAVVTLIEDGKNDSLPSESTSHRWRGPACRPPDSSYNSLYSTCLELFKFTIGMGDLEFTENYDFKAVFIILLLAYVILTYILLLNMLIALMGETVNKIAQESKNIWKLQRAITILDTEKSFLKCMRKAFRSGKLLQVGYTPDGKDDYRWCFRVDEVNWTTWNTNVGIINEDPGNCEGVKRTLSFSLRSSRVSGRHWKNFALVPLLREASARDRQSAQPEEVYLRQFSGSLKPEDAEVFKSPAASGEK
Sequence of UniProt Q07869 (whole entry, looked up): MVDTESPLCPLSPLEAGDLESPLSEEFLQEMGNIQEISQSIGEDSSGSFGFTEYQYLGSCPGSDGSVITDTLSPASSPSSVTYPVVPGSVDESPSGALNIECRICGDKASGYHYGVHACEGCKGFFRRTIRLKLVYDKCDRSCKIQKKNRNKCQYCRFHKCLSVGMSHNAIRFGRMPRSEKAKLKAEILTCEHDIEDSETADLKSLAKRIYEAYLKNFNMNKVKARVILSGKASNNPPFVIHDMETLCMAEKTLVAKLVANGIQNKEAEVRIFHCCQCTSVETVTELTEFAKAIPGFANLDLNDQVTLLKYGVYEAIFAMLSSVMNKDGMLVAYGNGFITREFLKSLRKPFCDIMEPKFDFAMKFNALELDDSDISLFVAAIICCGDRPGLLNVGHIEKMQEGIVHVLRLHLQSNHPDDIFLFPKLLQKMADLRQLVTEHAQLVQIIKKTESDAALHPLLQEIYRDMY

The IC50 of Cc1c(Cc2ccc(OC(C)(C)C(=O)O)cc2)c2ccc(C(=O)N[C@@H](C)c3ccc(C(F)(F)F)cc3)cc2n1C is reported as 4560 nM (Peroxisome proliferator-activated receptor alpha, ligand-binding domain (PPARA, Homo sapiens, UniProt Q07869); reporter gene, luciferase reporter; HEK293T, Gal4-PPARα LBD).
For Cc1nn(-c2cccc(N)c2)c(=O)c2cnc(Nc3ccc(N4CCNCC4)cc3)nc12, the IC50 was greater than 10000 nM (RET (Homo sapiens, UniProt P07949); enzyme activity, inhibitor).
For OC[C@@H]1[C@@H](O)[C@H](O)[C@@H](O)CN1CCCCCOCc1ccc(-c2ccccc2)cn1, the IC50 was 3 nM (GBA2; inhibitor, 4MU-β-D-glucopyranoside; HEK293T homogenates overexpressing GBA2).
O=C1CC(c2ccccc2)N1S(=O)(=O)Cc1ccccc1 (stereo not drawn) has an IC50 of 4300 nM (Chymotrypsinogen A; enzyme activity, inhibitor, fluorescence).
The IC50 of Cc1cc(C)nc(SCC(=O)Nc2ncc(Cc3cccc(OCc4cn(Cc5ccc(C#N)cc5)nn4)c3)s2)n1 is reported as 150 ± 30 nM (SIRT2 (Homo sapiens, UniProt Q8IXJ6); inhibitor).
The IC50 of OC[C@H]1N[C@H](CCCCOCC23CC4CC(CC(C4)C2)C3)[C@H](O)[C@@H](O)[C@@H]1O is reported as 68 nM (GBA2; inhibitor, 4MU-β-D-glucopyranoside; HEK293T homogenates overexpressing GBA2).
For O=C(Nc1ccc(Cc2ccccc2)cc1)C(C(F)(F)F)C(F)(F)F, the IC50 was greater than 100000 nM (Chymotrypsinogen A; enzyme activity, inhibitor, fluorescence).
C/C1=C\CC/C(C)=C/CC(C)(C)/C=C/C1 gave an IC50 of 22500 nM (TRPV1 (Homo sapiens, UniProt Q8NER1, Y495Q); ion current, inhibitor, patch clamp).
OC[C@@H]1[C@@H](O)[C@H](O)[C@@H](O)CN1CCCCCCC12CC3CC(CC(C3)C1)C2 gave an IC50 of 10 nM (GBA2; inhibitor, 4MU-β-D-glucopyranoside; HEK293T homogenates overexpressing GBA2).

Some of these lines once more:
For OC[C@@H]1[C@@H](O)[C@H](O)[C@@H](O)CN1CCCCCOCc1ccc(-c2ccccc2)cn1, the IC50 was 3 nM (GBA2; inhibitor, 4MU-β-D-glucopyranoside; HEK293T homogenates overexpressing GBA2).
